Assay results of several laboratories.
Compare with care: the assays were run in different laboratories.

| Compound | target or system | assay | test system | conditions | how to read | endpoint | result |
| --- | --- | --- | --- | --- | --- | --- | --- |
| CC(=O)NC[C@H]1CN(c2ccc(N3CCOCC3)c(F)c2)C(=O)O1 | Bifidobacterium longum | – | HM-848 | – | – | MIC | < 2.96 µM |
| C[C@H]1[C@H](NC(=O)/C(=N\OC(C)(C)C(=O)O)c2csc(N)n2)C(=O)N1S(=O)(=O)O | Shigella flexneri | agar dilution | ATCC 12022 susceptible | – | – | MIC | 0.125 µg/mL |
| CCCCCCC#Cc1cncc(-c2nnc(SCc3ccc(Cl)cc3)n2C)c1 | Mycobacterium avium | – | – | – | no activity below value | MIC | ≥ 200 µM |
| CCCCCCCCCC(=O)N[C@@H](Cc1c[nH]c2ccccc12)C(=O)N[C@H](CC(N)=O)C(=O)N[C@@H](CC(=O)O)C(=O)N[C@@H]1C(=O)NCC(=O)N[C@@H](CCCN)C(=O)N[C@@H](CC(=O)O)C(=O)N[C@H](C)C(=O)N[C@@H](CC(=O)O)C(=O)NCC(=O)N[C@H](CO)C(=O)N[C@@H]([C@H](C)CC(=O)O)C(=O)N[C@@H](CC(=O)c2ccccc2N)C(=O)O[C@@H]1C | Staphylococcus aureus | – | SH1000 | together with: phosphatidylethanolamine, molar ratio 0.5 | – | MIC | 1 µg/mL |
| O=C(CCCCCCC(=O)Nc1ccc(I)cc1)NO | OCI-Ly1 | – | – | 0.1 µM, 120 h | – | viability | 87.6% |
| CO/N=c1\cc2n(-c3ccc(Cl)cc3)c3ccccc3nc-2cc1Nc1ccc(Cl)cc1 | Mycobacterium avium | bacterial growth | clinical isolate | – | – | MIC | > 30 µM |
| CC1(C)SC2C(NC(=O)C(NC(=O)C3=C(O)C(Cc4ccc(F)cc4)NC3=O)c3ccccc3)C(=O)N2C1C(=O)O (stereo not drawn) | Escherichia coli | broth microdilution | BW25113 wild type | 18 h | – | MIC | 12.5 µg/mL |
| CCCCCCC#Cc1cncc(-c2nnc(SCc3ccc(C#N)cc3)n2C)c1 | Mycobacterium avium | – | – | – | no activity below value | MIC | ≥ 200 µM |
| OC(Cn1cncn1)(Cn1cncn1)c1ccc(F)cc1F | Paecilomyces variotii | – | MYA-3630 | – | – | MIC | 8 µg/mL |
| O/N=c1\cc2n(-c3ccc(Cl)cc3)c3ccccc3nc-2cc1Nc1ccc(Cl)cc1 | Mycobacterium avium | bacterial growth | clinical isolate | – | – | MIC | > 30 µM |
| CC(=O)C1=NN(c2ccccc2)C(=C(C#N)C(=O)c2ccc(Nc3cnccn3)cc2)S1 | Staphylococcus aureus and Bacillus subtilis | – | – | Gram-positive bacteria | – | MIC | 100 µg/mL |
| Cc1c(CN(C)C(=O)/C=C/c2cnc3c(c2)CCC(=O)N3)oc2ccccc12 | Escherichia coli | broth microdilution | AR-0543 | – | – | MIC | > 32 µg/mL |
| Nc1cc(F)ccc1NC(=O)/C=C/c1cnn(C/C=C/c2ccccc2)c1 | OCI-Ly1 | – | – | 0.1 µM, 120 h | – | viability | 202% |
| CC1(C)S[C@@H]2[C@H](NC(=O)[C@H](N)c3ccccc3)C(=O)N2[C@H]1C(=O)O | Pseudomonas aeruginosa | – | clinical isolate RKI-No_484/15 | – | – | MIC | > 16 µg/mL |
| N=C(N)c1ccc(OCc2ccccc2COc2ccc(C(=N)N)cc2)cc1 | Escherichia coli | – | mcr-1 polymyxin-resistant | 20 h, compound alone | – | MIC | > 200 µg/mL |
| Cc1ccc(CCC(=O)Nc2nnc(S(N)(=O)=O)s2)cc1 | Bifidobacterium longum | – | HM-846 | – | – | MIC | > 784 µM |
| CCOC(=O)CNC(=O)CO/N=c1\cc2n(-c3ccc(Cl)cc3)c3ccccc3nc-2cc1Nc1ccc(Cl)cc1 | Mycobacterium avium | bacterial growth | clinical isolate | – | – | MIC | > 30 µM |
| N=C(N)c1ccc(OCc2cccc(COc3ccc(C(=N)N)cc3)c2)cc1 | Escherichia coli | – | W3110 | in combination, checkerboard, together with: rifampicin | – | MIC | 25 µg/mL |

Some of these lines once more:
| Compound | target or system | assay | test system | conditions | how to read | endpoint | result |
| --- | --- | --- | --- | --- | --- | --- | --- |
| Nc1cc(F)ccc1NC(=O)/C=C/c1cnn(C/C=C/c2ccccc2)c1 | OCI-Ly1 | – | – | 0.1 µM, 120 h | – | viability | 202% |
